Published values from different studies.
Protocols differ between the studies behind these lines. ± gives the spread as reported.

N.N.O=C([O-])C1(C(=O)[O-])CCC1.[Pt+2]  Tmax (refers to: unbound platinum; human, plasma ultrafiltrate; intravenous, AUC 3, median, dose level -2): 36 min
CN1CC[C@@H](c2c(O)cc(O)c3c(=O)cc(-c4ccc(C(F)(F)F)cc4Cl)oc23)[C@@H]1CO  patients with adverse event (refers to: Hypertension; B-cell malignancies or AML; oral, 50 mg, continuous dosing): 12.5%
C[C@]1(CO)Cc2ncn(-c3ccc(C#N)c(Cl)c3)c2C(=O)O1  subjects with any TEAE (human; 20 mg multiple doses, fasted): 33.3%
COc1ncccc1-c1cnn2ccc(N3CCN(C(=O)OC(C)C)CC3)nc12  drug concentration (mouse nerve ligation model, plasma; oral, 30 mg/kg, 120 min after last dose, repeat dosing day 1): 6 µM
CC(C)(C)c1cc(-n2nc3ccccc3n2)c(O)c(C(C)(C)C)c1  daily dermal exposure dose (human aged 2-3 years; concentration not given, sunscreen, 95th percentile): 6.4 ng/kg/day
COc1cccc2c1CCCC2CCCN1CCN(C2CCCCC2)CC1 (stereo not shown)  Tmax (CD-1 mouse, male, lung; intraperitoneal, 0.3 mg/kg): 15 min
CN1CCN(c2ccc(Nc3nccc(-c4ccnc(NCc5ccccc5)c4)n3)cc2C(F)(F)F)CC1  toxicity (zebrafish embryos; 50 µM, 5 d): 5.6 ± 5.6%
CCOc1cc(Oc2ccc(C(F)(F)F)cc2Cl)ccc1[N+](=O)[O-]  body weight gain (rat, male; 500 mg/kg, 4 days): 29.7%
Cn1cncc1-c1c(F)cncc1NC(=O)c1c(N)nn2cc(F)cnc12  patients grade ≥3 Hyperkalemia (human patients; oral, up to 40 mg once daily): 0%
CC(C)[C@@H]1NC(=O)CNC(=O)[C@H](CC(N)=O)NC(=O)[C@H](CCCNC(=N)N)NC(=O)[C@H](Cc2ccc(O)cc2)NC(=O)[C@H](C(C)C)NC(=O)[C@@H](NC(=O)[C@@H](NC(=O)[C@H](CC(N)=O)NC(=O)[C@H](Cc2c[nH]c3ccccc23)NC(=O)[C@H](C)NC(=O)[C@H](Cc2ccccc2)NC(=O)CN)C(C)C)CSSC[C@@H](C(=O)N[C@@H](Cc2cnc[nH]2)C(=O)N[C@@H](CCCNC(=N)N)C(=O)N[C@@H](CCCNC(=N)N)C(=O)N[C@@H](C)C(=O)N[C@@H](CC(N)=O)C(N)=O)NC(=O)[C@H](C(C)C)NC(=O)[C@H](CCCNC(=N)N)NC1=O  creatinine (ICR mice, serum; intraperitoneal, 10 mg/kg, day 5): 86.4 ± 2.47 µmol/L
CCc1ccc(CC/C=C/c2ccc3c(c2)C(=O)CC3)cc1  chloride (Sprague-Dawley rat, female, serum; oral, 120 mg/kg/day, 14 days): 105 mM
Clc1ccc(Cl)c(-c2cc(Cl)c(Cl)cc2Cl)c1  log K(PDMS-water) (fresh water; 20 °C, S30-2 sampler, 30 µm): 6.03 ± 0.02
CC(C)C[C@@H]1NC(=O)CNC(=O)[C@H](CC(N)=O)NC(=O)[C@H](CCCNC(=N)N)NC(=O)[C@H]([C@@H](C)O)NC(=O)[C@@H]2CSSC[C@@H]3NC(=O)[C@H]([C@@H](C)O)NC(=O)CNC(=O)CNC(=O)[C@H](C(C)C)NC(=O)[C@@H]4CSSC[C@H](NC(=O)[C@H]([C@@H](C)O)NC(=O)[C@H](CSSC[C@H](NC(=O)[C@H](CCCCN)NC(=O)[C@@H]5CCCN5C1=O)C(=O)NCC(=O)N[C@@H](CCC(=O)O)C(=O)N[C@@H]([C@@H](C)O)C(=O)N4)NC(=O)CNC(=O)[C@@H]1CCCN1C(=O)[C@H]([C@@H](C)O)NC(=O)[C@H](CC(N)=O)NC3=O)C(=O)N[C@@H](CO)C(=O)N[C@@H](Cc1c[nH]c3ccccc13)C(=O)N1CCC[C@H]1C(=O)N[C@@H](C(C)C)C(=O)N2  remaining peptide (HPLC; ammonium bicarbonate 0.1 M; 180 µM, 14 days, pH 9.0, 37 °C, deamidation stability): 48.1 ± 13.6%
N=C(N)NCCC[C@@H](NC(=O)[C@@H](N)Cc1ccccc1)C(=O)N[C@@H](Cc1ccccc1)C(=O)N[C@@H](CCCCN)C(N)=O  mean amount excreted in urine (LC-MS; human; 15 mg, 5.833 h): 5.05e+06 ng
c1ccc2c(c1)-c1cccc3c1c-2cc1ccccc13  log K(PDMS-water) (fresh water; 12 (unit not given), 20 °C, S30-2 sampler, 30 µm): 5.22 ± 0.03
COc1cc2c(Oc3ccc4[nH]c(C)cc4c3F)ccnc2cc1OCC1(N)CC1  grade 3 Headache (paediatric recurrent refractory sarcoma; concentration not given, whole group): 0%
O=C(Nc1ccccc1)C1CCN(C(=O)Oc2cccnc2)CC1  change in withdrawn–gregarious score (Bond-Lader VAS; healthy women; oral, 20 mg; baseline: pre-dose baseline, direction not given): 1.6
N.N.[Cl][Pt][Cl]  body weight (mouse xenograft model; dose not given, day 6, group mean): 21.6 g
Cc1ccc(F)c2cc(C(=O)N[C@@H]3CCC[C@H](N4CC[C@H](N(C)S(C)(=O)=O)C4)C3)[nH]c12  plasma concentration (CD1 mouse, plasma; oral, 30 mg/kg, 1 h): 548 ng/mL
COc1ccc2nc3cc(Cl)ccc3c(Nc3cc(CN4CCCC4)c(O)c(CN4CCCC4)c3)c2n1  lymphocytes (mouse, blood; intraperitoneal, 28 mg/kg): 64%
CN[C@@H](C)C(=O)N[C@H]1CN(S(=O)(=O)c2cccc(S(=O)(=O)N3CC[C@H]4CC[C@@H](C(=O)NC(c5ccccc5)c5ccccc5)N4C(=O)[C@@H](NC(=O)[C@H](C)NC)C3)c2)CC[C@H]2CC[C@@H](C(=O)NC(c3ccccc3)c3ccccc3)N2C1=O  treatment-related ALT elevation incidence (patients with advanced solid tumours; 0.3 mg, phase I monotherapy): 0%
c1ccc2cc3c(cc2c1)-c1cccc2cccc-3c12  log K(PDMS-water) (fresh water; 12 (unit not given), 20 °C, S100 sampler, 100 µm): 5.22 ± 0.01
CC(=O)c1c(C)c2cnc(Nc3ccc(C4CCN(CCS(C)(=O)=O)CC4)cn3)nc2n(C2CCCC2)c1=O  clearance (human patients, plasma; oral, 100 mg twice daily, day 21 multiple doses, together with: fulvestrant): 1780 mL/min
CC1(C)C(/C=C(\Cl)C(F)(F)F)C1C(=O)OC(C#N)c1cccc(Oc2ccccc2)c1 (stereo not shown)  enzyme contribution to clearance (refers to: CYP2C9; human, age 6 months): 0.47%
CCCCCCCCCCCCCCCC(=O)N[C@@H](CCC(=O)NCCCC[C@H](NC(=O)[C@H](CC(=O)O)NC(=O)[C@H](CO)NC(=O)[C@@H](NC(=O)[C@H](Cc1ccccc1)NC(=O)[C@@H](NC(=O)CNC(=O)[C@H](CCC(N)=O)NC(=O)[C@H](CO)NC(=O)[C@@H](N)Cc1c[nH]cn1)[C@@H](C)O)[C@@H](C)O)C(=O)N[C@@H](CO)C(=O)N[C@@H](CCC(=O)O)C(=O)N[C@@H](Cc1ccc(O)cc1)C(=O)N[C@@H](CC(C)C)C(=O)N[C@@H](CC(=O)O)C(=O)N[C@@H](CO)C(=O)N[C@@H](CCC(=O)O)C(=O)N[C@@H](CCCNC(=N)N)C(=O)N[C@@H](C)C(=O)N[C@@H](CCCNC(=N)N)C(=O)N[C@@H](CC(=O)O)C(=O)N[C@@H](Cc1ccccc1)C(=O)N[C@H](C(=O)N[C@@H](C)C(=O)N[C@@H](Cc1c[nH]c2ccccc12)C(=O)N[C@@H](CC(C)C)C(=O)N[C@@H](CCC(=O)O)C(=O)N[C@@H](C)C(=O)NCC(=O)NCC(=O)O)C(C)C)C(=O)O  treatment-related adverse events (human, CrCl ≥20 to <30 mL/min; sc, 100 µg single dose): 50%
Nc1nc2cc(-c3ccc4ncc(C(=O)N5CCOCC5)n4c3)ccc2o1  patients with grade ≥3 AEs (advanced solid tumour patients; dose not given, at least 1 AE, all schedules; baseline: patients): 54%
CC(C)(O)c1cc(Nc2cc(Oc3cn(C4CC4)nc3C3CCOCC3)ccn2)ccn1  treatment-emergent adverse events (Vomiting; advanced cancer patients, grade 4 glioma expansion; oral, 50 mg twice daily, all causality any grade): 15%
C[C@@H]1NC(=O)[C@H](CCCCNC(=O)CO/N=C/C(=O)NCCCC[C@@H]2NC(=O)[C@@H](Cc3ccccc3)NC(=O)[C@H](CC(=O)O)NC(=O)CNC(=O)[C@H](CCCNC(=N)N)NC2=O)NC(=O)CNC(=O)[C@@H]2CCCN2C(=O)[C@H](CCCCNC(=O)CO/N=C/C(=O)NCCCC[C@@H]2NC(=O)[C@@H](Cc3ccccc3)NC(=O)[C@H](CC(=O)O)NC(=O)CNC(=O)[C@H](CCCNC(=N)N)NC2=O)NC(=O)[C@H](CCCCNC(=O)[C@H](CCCCN)NC(=O)[C@H](Cc2ccccc2)NC(=O)CNC(=O)CN2CCCNCCNCCCNCC2)NC(=O)[C@H](CCCCNC(=O)CO/N=C/C(=O)NCCCC[C@@H]2NC(=O)[C@@H](Cc3ccccc3)NC(=O)[C@H](CC(=O)O)NC(=O)CNC(=O)[C@H](CCCNC(=N)N)NC2=O)NC(=O)CNC(=O)[C@@H]2CCCN2C(=O)[C@H](CCCCNC(=O)CO/N=C/C(=O)NCCCC[C@@H]2NC(=O)[C@@H](Cc3ccccc3)NC(=O)[C@H](CC(=O)O)NC(=O)CNC(=O)[C@H](CCCNC(=N)N)NC2=O)NC1=O [copper-64 labelled]  tissue uptake (normal mice, kidney; intravenous, 0.74 MBq, 24 h post-injection): 14.2 ± 1.32 %ID/g
CCS(=O)(=O)Nc1ccc(Oc2ccc(F)cc2F)c(-c2cn(C)c(=O)c3[nH]ccc23)c1  treatment-emergent adverse events (serious myocardial infarction; human, relapsed/refractory AML; oral, dose not given): 5%
[O-][S+]1CCc2nc(N3CCC(c4ncc(Cl)cn4)CC3)nc(NC3(CO)CCC3)c21 (stereo not shown)  C-reactive protein, high-sensitivity (refers to: mean; idiopathic pulmonary fibrosis patients, blood; 18 mg twice daily, at last treatment): 6 mg/L
CC/C(=C(\c1ccccc1)c1ccc(OCCN(C)C)cc1)c1ccccc1  Tmax (CD-1 mouse, male, plasma; intraperitoneal, 3 mg/kg): 120 min
C[C@@H](NC(=O)N1C(=O)[C@H](Cc2ccnc(N)c2)[C@H]1C(=O)O)C1CCCCC1  incidence of mild AEs (healthy adult Chinese volunteers; continuous intravenous infusion, 1.5 mg/kg/h, 5-day infusion, CTCAE 5.0 grading): 12.5%
CCCCCCCC(=O)N[C@@H](CCCCN)C(=O)N[C@@H](CCCCN)C(=O)N[C@@H](C)C(=O)N[C@@H](CC(C)C)C(=O)N[C@@H](CCCCN)C(=O)N[C@@H](CC(C)C)C(=O)N[C@@H](C)C(=O)N[C@@H](CCCCN)C(=O)N[C@@H](CCCCN)C(=O)N1CCC[C@H]1C(=O)N[C@@H](CC(C)C)C(=O)N[C@@H](CCCCN)C(=O)N[C@@H](CC(C)C)C(=O)N[C@@H](CC(C)C)C(=O)N[C@@H](CCCCN)C(N)=O  Tmax (ICR mouse, female, whole blood; intravenous bolus, 1 mg/kg): 4.8 min
CN[C@H](CC(C)C)C(=O)N[C@H]1C(=O)N[C@@H](CC(N)=O)C(=O)N[C@H]2C(=O)N[C@H]3C(=O)N[C@H](C(=O)N[C@H](C(=O)O)c4cc(O)cc(O)c4-c4cc3ccc4O)[C@H](O)c3ccc(c(Cl)c3)Oc3cc2cc(c3O[C@@H]2O[C@H](CO)[C@@H](O)[C@H](O)[C@H]2O[C@H]2C[C@](C)(N)[C@H](O)[C@H](C)O2)Oc2ccc(cc2Cl)[C@H]1O  volume of distribution, bootstrap median (population PK model; human neonates; dose not given): 0.904 L
Clc1cc(Cl)c(-c2ccc(Cl)c(Cl)c2Cl)cc1Cl  literature range factor (polyethylene-water partitioning; PCB compilation; baseline: maximum over minimum K): 6
CO[C@H]1C[C@@H]2CC[C@@H](C)[C@@](O)(O2)C(=O)C(=O)N2CCCC[C@H]2C(=O)O[C@H]([C@H](C)C[C@@H]2CC[C@@H](OC(=O)NCCOCCOCCOCCOCCOCCOCCOCCOCCC(=O)N3CCc4cc(Cn5nc(-c6ccc7oc(N)nc7c6)c6c(N)ncnc65)ccc4C3)[C@H](OC)C2)C[C@@H](O)[C@H](C)/C=C(\C)[C@@H](O)[C@@H](OC)C(=O)[C@H](C)C[C@H](C)/C=C/C=C/C=C/1C  deaths due to TEAEs (phase 1 dose escalation; advanced solid tumour patients; intravenous, 12 mg weekly, any grade): 0%
O.O.O.O.O.O.[Cl-].[Cl-].[Co+2]  reticulocytes (Crl:CD(SD) rat female, blood; oral, 2.48 mg Co/kg/day, 90 days; baseline: red blood cells): 19.7%
CC(C)C[C@@H]1NC(=O)CNC(=O)[C@H](CC(N)=O)NC(=O)[C@H](CCCNC(=N)N)NC(=O)[C@H]([C@@H](C)O)NC(=O)[C@@H]2CSSC[C@@H]3NC(=O)[C@H]([C@@H](C)O)NC(=O)CNC(=O)CNC(=O)[C@H](C(C)C)NC(=O)[C@@H]4CSSC[C@H](NC(=O)[C@H]([C@@H](C)O)NC(=O)[C@H](CSSC[C@H](NC(=O)[C@H](C(C)C)NC(=O)[C@H](CCCCN)NC1=O)C(=O)NCC(=O)N[C@@H](CCC(=O)O)C(=O)N[C@@H]([C@@H](C)O)C(=O)N4)NC(=O)CNC(=O)[C@@H]1CCCN1C(=O)[C@H]([C@@H](C)O)NC(=O)[C@H](CC(N)=O)NC3=O)C(=O)N[C@@H](CO)C(=O)N[C@@H](Cc1c[nH]c3ccccc13)C(=O)N1CCC[C@H]1C(=O)N[C@@H](C(C)C)C(=O)N2  remaining peptide (HPLC; ammonium bicarbonate; 180 µM, 14 days, pH 9.0, 25 °C, deamidation stability): 8.9 ± 0.5%
O=S(=O)(Nc1ccccc1)c1ccc(NC(=S)Nc2ccccc2)cc1  serum enzyme activity (refers to: AST; male mouse, blood; oral, 5 mg/kg daily, 14 days): 327 U/L
O=C(O)CCCOc1ccc(F)cc1-c1cc(-c2ccccc2C(F)(F)F)n(-c2ccccc2)n1  leukocyte differential (refers to: Monocytes; Crl:CD(SD) rats, female, blood; iv, 25 µg/kg, 1 day): 2 ± 0.5%

Repeated from above:
C[C@@H](NC(=O)N1C(=O)[C@H](Cc2ccnc(N)c2)[C@H]1C(=O)O)C1CCCCC1  incidence of mild AEs (healthy adult Chinese volunteers; continuous intravenous infusion, 1.5 mg/kg/h, 5-day infusion, CTCAE 5.0 grading): 12.5%
COc1ccc2nc3cc(Cl)ccc3c(Nc3cc(CN4CCCC4)c(O)c(CN4CCCC4)c3)c2n1  lymphocytes (mouse, blood; intraperitoneal, 28 mg/kg): 64%
N.N.[Cl][Pt][Cl]  body weight (mouse xenograft model; dose not given, day 6, group mean): 21.6 g
O=S(=O)(Nc1ccccc1)c1ccc(NC(=S)Nc2ccccc2)cc1  serum enzyme activity (refers to: AST; male mouse, blood; oral, 5 mg/kg daily, 14 days): 327 U/L
